Measurements of several laboratories.
Each numbered part is a random draw from the data of one study; scales do not carry over between parts.

Sample 1 — technique: RNA Bind-n-Seq; form: RNA; medium: in vitro; tested at: 1 µM; setting: whole 134-nt RNA, ends assumed; with: 150 mM KCl; baseline: input library; direction: higher = stronger binding
Target: Ras GTPase-activating protein-binding protein 1, C-terminal RGG region (G3BP1, Homo sapiens, UniProt Q13283)
UniProt Q13283, sequence (whole entry, looked up): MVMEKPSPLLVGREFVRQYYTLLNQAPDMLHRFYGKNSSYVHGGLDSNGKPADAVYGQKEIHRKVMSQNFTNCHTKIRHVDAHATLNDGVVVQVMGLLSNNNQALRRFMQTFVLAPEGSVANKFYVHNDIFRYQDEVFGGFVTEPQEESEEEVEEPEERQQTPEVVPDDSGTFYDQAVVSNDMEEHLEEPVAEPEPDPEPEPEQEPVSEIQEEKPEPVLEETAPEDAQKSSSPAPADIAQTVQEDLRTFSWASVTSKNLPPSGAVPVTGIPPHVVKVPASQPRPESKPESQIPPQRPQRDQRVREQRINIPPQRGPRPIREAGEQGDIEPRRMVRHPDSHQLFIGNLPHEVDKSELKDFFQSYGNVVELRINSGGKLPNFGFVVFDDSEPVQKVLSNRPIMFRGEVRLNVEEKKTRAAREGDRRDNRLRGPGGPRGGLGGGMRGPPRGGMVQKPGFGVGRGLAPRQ
All sequences stand within: GGGAGUUCUACAGUCCGACGAUC … UGGAAUUCUCGGGUGUCAAGG
Sequence | log2 enrichment
GUCCUGUGCUACACAUCGUAUGUACCGAAUCGGAAAAAGGAAAAAAAGGAAAAAAAGGAAAGUAUUAUGUUACGCCGUUCGGAUCUGCAC | -1.71
AAGUCCUGUGCUACACAUCGUAUGUACCGAAUCGGGGCCCCGGCCCCGGCCCCGGGGAAAGUAUUAUGUUACGCCGUUCGGAUCUGCACU | -1.96
CACAGACAACACGCACCCACACAGACACAGAGGGAAGGGGUUGGGAUGGGGACAGGGUGCACAGCAGCGCGGGGUAGGACCCCAGCCCCU | -0.287
UUUAAGAGCAGCCAGGGAGAUAGUGGCGUUGACUUGAGUGCCGAGUCUCGGGAGUCGUCUGCGACCUCCUCGCAGCGCAGCUCCCCAUAU | 0.664
GUCCUGUGCUACACAUCGUAUGUACCGAAUCAAAUUUUUAAACCCAAACCCCCCCAAAAAAGUAUUAUGUUACGCCGUUCGGAUCUGCAC | -0.825

Sample 2 — technique: protein binding microarray; form: double-stranded DNA, one strand shown; medium: in vitro; tested at: not given; baseline: not given; direction: higher = stronger binding
Target: Histone acetyltransferase KAT6A, winged helix 2, GST fusion (KAT6A, Homo sapiens, UniProt Q92794, residues 85-181)
Setting: 8-mer, flanks averaged, mean of 2 arrays, mostly near background
Target sequence (chain): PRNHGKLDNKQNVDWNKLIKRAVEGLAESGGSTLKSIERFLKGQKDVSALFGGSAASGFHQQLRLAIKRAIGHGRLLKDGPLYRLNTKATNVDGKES
Sequence | E-score
GCTACTAA | 0.171
CTATAGGA | -0.205
AATTCACG | -0.0891
CTTTCTTA | -0.0313
GTATCTCA | -0.0341
ACCTGCGA | 0.0809

Other studies, line by line
Substance | tested on | test | system | conditions | scale | quantity | value
PhoQ, residues 284 288 289 292 302 303 SCCLKL | PhoP, residues 12 14 15 18 19 QYCSL (Escherichia coli, UniProt P23836) | Sort-seq, item: YFP reporter | E. coli | PhoQ-PhoP variant library, with: 10 µM Mg2+ | baseline: high Mg2+ state, higher = stronger signaling | fold induction | 10.5
ENO1 (Homo sapiens, UniProt P06733) | EIF2B2 (Homo sapiens, UniProt P49770) | cross-linking MS | cell fractions | with: DSSO |  | cross-linked residues | K233 to S227

For quick reference, copied from above (sample 1):
Sequence | log2 enrichment
AAGUCCUGUGCUACACAUCGUAUGUACCGAAUCGGGGCCCCGGCCCCGGCCCCGGGGAAAGUAUUAUGUUACGCCGUUCGGAUCUGCACU | -1.96
